Experimental data from different studies.
Lines come from different studies, so protocols differ. Numbers after ± are the reported error. ≈ marks a conversion by molar mass, not a printed value.

For O=C(CN1C(=O)Cc2c([nH]c3ccc(Br)cc23)-c2ccc(Cl)cc21)N1CCCC1, the infected macrophages was 15 to 68% (Leishmania braziliensis; intracellular amastigote infection, DAPI fluorescence microscopy; macrophages; 10 µM, 24 h, 5 µM if macrophages detach; lower = more active).
For Cc1cccc(NC(=O)CSc2nc3ccccc3c(=O)n2-c2ccc(S(N)(=O)=O)cc2)c1, the inhibition zone was 22 mm (Candida albicans; microbial growth, well diffusion; ATCC10231; 500 µg/mL, 72 h).
O=C(CN1C(=O)Cc2c([nH]c3ccc(Br)cc23)-c2ccc(Cl)cc21)N1CCOCC1 gave an EC50 of 1.6 µM (Leishmania braziliensis; parasite growth; J774; 24 h, intracellular, amastigote).
With CNCCOC(=O)OCOc1c(-c2ccc(C(F)(F)F)cc2)c(C)nc2cc(OC)c(Cl)cc12 the parasitaemia suppression was 96 ± 0.3% (Plasmodium berghei (GFP); mice; oral, 50 mg/kg once daily, days 3-5, day 6 post-infection).
Cc1ccc(NC(=O)Nc2nnc(SCC(O)(Cn3cncn3)c3ccc(F)cc3F)s2)cc1 (stereo not drawn) gave an MIC90 of 2 to 4 µg/mL (≈ 3.97 to 7.94 µM) (Nannizzia gypsea; broth microdilution; PTCC 5070; 48 h, 37 °C).
CO[C@@H]1CC[C@@]2(C)[C@@H](C1)C[C@@H](O)[C@@H]1[C@@H]2CC[C@]2(C)[C@@H]([C@H](C)CCC(=O)O)CC[C@@H]12 — result for “complete inhibition concentration”: greater than 100 µM (Clostridioides difficile; spore germination, inhibitor, OD600; NAP1; 20 min, together with: 2000 µM taurocholate).
COc1cc2[nH]c(C)c(-c3ccc(Oc4ccc(OC(F)(F)F)cc4)cc3)c(=O)c2cc1Cl has an ED90 of 0.06 mg/kg/day (Plasmodium yoelii; suppression test; mouse; oral, 4 days, blood stage, PEG-400 vehicle; reference: untreated).
For Cc1ccc(S(=O)(=O)N2C(=O)CSC2c2cccc(F)c2)cc1 (stereo not drawn), the MIC was 8 µg/mL (≈ 22.8 µM) (Lacticaseibacillus casei; broth microdilution; NCIM 2651).
For `GYENPTYKFFEQMQN`, “attachment rate k0” read 0.0394 s⁻¹ (Loligo pealeii; axonal transport; peptide, squid giant axon; cargo beads).
OC(Cn1cncn1)(Cn1cncn1)c1ccc(F)cc1F gave an MIC90 of 4 µg/mL (≈ 13.1 µM) (Nannizzia gypsea; broth microdilution; PTCC 5070; 48 h, 37 °C).
For CC[C@H]1OC(=O)[C@H](C)[C@@H](O[C@H]2C[C@@](C)(OC)[C@@H](O)[C@H](C)O2)[C@H](C)[C@@H](O[C@@H]2O[C@H](C)C[C@H](N(C)C)[C@H]2O)[C@](C)(O)C[C@@H](C)C(=O)[C@H](C)[C@@H](O)[C@]1(C)O, the sensitive strains was 26.3% (all pathogens; community-acquired pneumonia patients; Fine score 70 or more).
With O=C(Nc1nnc(SCC(O)(Cn2cncn2)c2ccc(F)cc2F)s1)Nc1ccc(F)cc1F (stereo not drawn) the MIC90 was 2 to 4 µg/mL (≈ 3.81 to 7.61 µM) (Nannizzia gypsea; broth microdilution; PTCC 5070; 48 h, 37 °C).
The MIC of Cc1ccc(C2SCC(=O)N2S(=O)(=O)c2ccc(C)cc2)cc1 (stereo not drawn) is reported as greater than 256 µg/mL (Lacticaseibacillus casei; broth microdilution; NCIM 2651).
With C[C@@H]1O[C@@H](Oc2cc(O)c3c(=O)c(O)c(-c4ccc(O)c(O)c4)oc3c2)[C@H](O)[C@H](O)[C@H]1O the antiviral activity was 14.9% (porcine epidemic diarrhea virus; 10 µg/mL, 1 h, 4 °C, virus pre-incubation then washing).
Under “serum cytokine level”, CN[C@H](CC(C)C)C(=O)N[C@H]1C(=O)N[C@@H](CC(N)=O)C(=O)N[C@H]2C(=O)N[C@H]3C(=O)N[C@H](C(=O)N[C@H](C(=O)O)c4cc(O)cc(O)c4-c4cc3ccc4O)[C@H](O)c3ccc(c(Cl)c3)Oc3cc2cc(c3O[C@@H]2O[C@H](CO)[C@@H](O)[C@H](O)[C@H]2O[C@H]2C[C@](C)(N)[C@H](O)[C@H](C)O2)Oc2ccc(cc2Cl)[C@H]1O is recorded as 125 pg/mL (Staphylococcus aureus CVCC546; ELISA, item: TNF-α; CD-1 mouse endometritis; 10 µg/mL, 24 h).
The EC50 of O=C(CN1C(=O)Cc2c([nH]c3ccc(Br)cc23)-c2ccc(Cl)cc21)N1CCNCC1 is reported as 0.2 to 0.4 µM (Leishmania braziliensis; parasite growth; J774; 24 h, intracellular, amastigote).
For Cc1ccccc1NC(=O)Nc1nnc(SCC(O)(Cn2cncn2)c2ccc(F)cc2F)s1 (stereo not drawn), the MIC90 was 8 µg/mL (≈ 15.9 µM) (Nannizzia gypsea; broth microdilution; PTCC 5070; 48 h, 37 °C).
With CC(C)(C)NC(=O)CN1C(=O)Cc2c([nH]c3ccc(Br)cc23)-c2ccc(Cl)cc21 the infected macrophages was 72 to 107% (Leishmania braziliensis; intracellular amastigote infection, DAPI fluorescence microscopy; macrophages; 10 µM, 24 h, 5 µM if macrophages detach; lower = more active).
The EC50 of CC(=O)Oc1ccccc1C(=O)Nc1ncc([N+](=O)[O-])s1 is reported as greater than 20 µM (Cryptosporidium hominis; cytopathic effect; HCT-8; 48 h).
For `LSTFFRLFN`, biofilm growth read “no effect” (Streptococcus sanguis; OD600; peptide, ATCC 49295, 4 h single-species biofilm; 128 µg/ml, 5 min exposure, OD600 read over 5 h).
For O=C(NCCN1CCCC1)c1cc(-c2ccc(CN3CCOCC3)cc2)nc2ccc(F)cc12, the EC50 was 0.00025 to 0.00139 µM (Plasmodium vivax; schizont maturation; clinical isolates; ex vivo range).
For OB(O)O, the MBC was 3% (Serratia marcescens; broth macrodilution; clinical isolate; together with: zinc borate 9%).
CC[C@H]1OC(=O)[C@H](C)[C@@H](O[C@H]2C[C@@](C)(OC)[C@@H](O)[C@H](C)O2)[C@H](C)[C@@H](O[C@@H]2O[C@H](C)C[C@H](N(C)C)[C@H]2O)[C@](C)(O)C[C@@H](C)CN(C)[C@H](C)[C@@H](O)[C@]1(C)O has a sensitive strains of 100% (other Haemophilus species; community-acquired pneumonia patients; Fine score below 70).
NC(=O)c1ncn([C@@H]2O[C@H](CO)[C@@H](O)[C@H]2O)n1 has an EC50 of 2.9 µM (Hepatitis E virus; viral replication, inhibitor, luciferase; 48 h, replicon).
The sensitive strains of CC1(C)S[C@@H]2[C@H](NC(=O)[C@H](N)c3ccc(O)cc3)C(=O)N2[C@H]1C(=O)O is reported as 28.6% (other Enterobacteriaceae; community-acquired pneumonia patients; Fine score 70 or more).
The inhibition zone of Cc1ccc(C(=O)N(C(=O)c2ccc(C)cc2)C(=S)N2N=C(c3ccc(C)cc3)CC2c2ccc(F)cc2)cc1 (stereo not drawn) is reported as 5 mm (Aspergillus fumigatus; microbial growth, disc diffusion; 100 µM).
With COC(=O)c1cc(Cl)ccc1N(C)C(=O)c1ccn2ncc(-c3ccc(C(N)=O)cc3)c2c1 the EC50 was 0.032 µM (Cryptosporidium hominis; cytopathic effect; HCT-8; 48 h).
The EC50 of CCN(CC)CCNC(=O)CN1C(=O)Cc2c([nH]c3ccc(Br)cc23)-c2ccc(Cl)cc21 is reported as 3 µM (Leishmania braziliensis; parasite growth; J774; 24 h, intracellular, amastigote).
For Cc1ccc(S(=O)(=O)N2C(=O)CSC2c2ccc([N+](=O)[O-])cc2)cc1 (stereo not drawn), the MIC was 16 µg/mL (≈ 42.3 µM) (Lacticaseibacillus casei; broth microdilution; NCIM 2651).
With CNC(=O)c1ccc(-c2cnn3ccc(C(=O)N(CCC(=O)OCC(=O)N(C)C)c4ccc(Cl)cc4)cc23)cc1 the EC50 was greater than 20 µM (Cryptosporidium hominis; cytopathic effect; HCT-8; 48 h).
The inhibition of COc1cc(CNCCCCCCCCNCc2ccc(OCc3ccccc3)c(OC)c2)ccc1OCc1ccccc1 is reported as 0% (Toxoplasma gondii; parasite growth; human foreskin fibroblasts, RH GFP; 1 µM).
O=C(Nc1cccc(Cl)c1)Nc1nnc(SCC(O)(Cn2cncn2)c2ccc(F)cc2F)s1 (stereo not drawn) has an MIC90 of 2 to 4 µg/mL (≈ 3.82 to 7.63 µM) (Nannizzia gypsea; broth microdilution; PTCC 5070; 48 h, 37 °C).
For C=CC[C@@H]1/C=C(\C)C[C@H](C)C[C@H](OC)[C@H]2O[C@@](O)(C(=O)C(=O)N3CCCC[C@H]3C(=O)O[C@H](/C(C)=C/[C@@H]3CC[C@@H](O)[C@H](OC)C3)[C@H](C)[C@@H](O)CC1=O)[C@H](C)C[C@@H]2OC, “distance from plasma membrane” read 153 ± 67 nm (Schizosaccharomyces pombe; item: F-actin, cytokinetic ring; 20 µg/mL, 90 min).
For Cc1occc(=O)c1O, the mycelial growth was 2.9 ± 0.3 cm (Phyllosticta citricarpa; PDA plates; 10000 µg/mL, 504 h).
The infection inhibition of c1cnc(NCCCn2ccnc2)cn1 is reported as 58% (Leishmania braziliensis; J774.2 macrophages; IC25, 240 h, day 10; reference: untreated).
The MIC90 of Cc1ccc(NC(=O)Nc2nnc(SCC(O)(Cn3cncn3)c3ccc(F)cc3F)s2)cc1Cl (stereo not drawn) is reported as 2 to 4 µg/mL (≈ 3.72 to 7.43 µM) (Nannizzia gypsea; broth microdilution; PTCC 5070; 48 h, 37 °C).

For quick reference, copied from above:
The sensitive strains of CC1(C)S[C@@H]2[C@H](NC(=O)[C@H](N)c3ccc(O)cc3)C(=O)N2[C@H]1C(=O)O is reported as 28.6% (other Enterobacteriaceae; community-acquired pneumonia patients; Fine score 70 or more).
With O=C(Nc1nnc(SCC(O)(Cn2cncn2)c2ccc(F)cc2F)s1)Nc1ccc(F)cc1F (stereo not drawn) the MIC90 was 2 to 4 µg/mL (≈ 3.81 to 7.61 µM) (Nannizzia gypsea; broth microdilution; PTCC 5070; 48 h, 37 °C).
COc1cc2[nH]c(C)c(-c3ccc(Oc4ccc(OC(F)(F)F)cc4)cc3)c(=O)c2cc1Cl has an ED90 of 0.06 mg/kg/day (Plasmodium yoelii; suppression test; mouse; oral, 4 days, blood stage, PEG-400 vehicle; reference: untreated).
For Cc1ccc(S(=O)(=O)N2C(=O)CSC2c2cccc(F)c2)cc1 (stereo not drawn), the MIC was 8 µg/mL (≈ 22.8 µM) (Lacticaseibacillus casei; broth microdilution; NCIM 2651).
For `LSTFFRLFN`, biofilm growth read “no effect” (Streptococcus sanguis; OD600; peptide, ATCC 49295, 4 h single-species biofilm; 128 µg/ml, 5 min exposure, OD600 read over 5 h).
